Published values from different studies.
Protocols differ between the studies behind these lines. “And” joins repeats or separate records; there may be more than shown. ± gives the spread as reported.

C[C@@H](c1ncncc1F)[C@](O)(Cn1cncn1)c1ccc(F)cc1F — drug-related TEAE incidence (measured: Dizziness; human; oral, 200 mg): 0%
CCN(CC)CCNC(=O)c1c(C)[nH]c(/C=C2\C(=O)Nc3ccc(F)cc32)c1C — dose-adjusted solubility (FaSSIF; literature solubility over dose): 0.000211 mL⁻¹
NC1(C(=O)N[C@@H](CCO)c2ccc(Cl)cc2)CCN(c2nc[nH]c3nccc2-3)CC1 — systemic inflammatory response syndrome incidence (human mCRPC patients; oral, twice daily, 4/7 days, any grade, treatment-related, together with: enzalutamide 160 mg daily): 6.7%
COc1cc(O)c2c(c1)C(=O)c1cc(C)cc(O)c1C2=O — viability (HK-2 co-cultured with HepaRG; MTT; 66.67 µM, 48 h; relative to: untreated control): 91.2 ± 13.8%
CC#CC(=O)N1CC[C@@H](n2c(=O)n(-c3ccc(Oc4ccccc4)cc3)c3c(N)ncnc32)C1 — AUC(0-12h) (human, fasting, plasma; oral, 160 mg once daily, cycle 1 day 28): 2590 ± 179 ng·h/mL
C[C@@H]1CN(CC(=O)N2CC(C)(C)c3ncc(Cc4ccc(F)cc4)cc32)[C@@H](CN2CCOC[C@H]2C)CN1 — half-life (cynomolgus monkey, male; oral, 5 mg/kg): 216 ± 12.6 min
CC1(C)CC[C@]2(NC(=O)C(C)(F)F)CC[C@]3(C)[C@H](C(=O)C=C4[C@@]5(C)C=C(C#N)C(=O)C(C)(C)[C@@H]5CC[C@]43C)[C@@H]2C1 — trough plasma concentration (human, plasma; oral, 150 mg once daily, day 24 predose, median): 36.6 ng/mL
COc1c(O[C@@H]2O[C@H](CO)[C@@H](O)[C@H](O)[C@H]2O)cc2c(c1O)C(=O)c1c(cc(C)c(O)c1OC)C2=O — cell viability (HK-2 co-cultured with HepaRG; MTT; 266.67 µM, 24 h; relative to: untreated control): 88 ± 10.6%
CC(C)(C(=O)N1CCOc2c(C#N)cncc2C1)C(F)F — subjects with TEAE (measured: gingival bleeding; human, both sexes; oral, 20 mg once daily, 14 days, multiple ascending dose): 0%
C=CC(=O)N(C)CCOc1c(N)ncnc1-c1cc(F)cc(NC(=O)c2ccc(C3CC3)cc2F)c1C — AUC(0-inf) per dose (human; oral, 50 mg, day 3, geometric mean, given alone): 4.85 ng·h/mL/mg
Cc1cc(-c2nccc3c2ccn3CC(=O)Nc2ccc(-c3cnccn3)cn2)ccn1 — subjects with any grade 3 TEAE (human; MAD part, 20 mg once daily): 0%
Cc1nc(-c2ccc(OCC(C)C)c(C#N)c2)sc1C(=O)O — body weight (KM mouse, chronic hyperuricaemia model; dose not given, day 13): 28.8 g and 31.2 g and 31.4 g and 34.8 g and 37.6 g and 34.2 g
CN[C@@H](C)C(=O)N[C@H]1CN(S(=O)(=O)c2cccc(S(=O)(=O)N3CC[C@H]4CC[C@@H](C(=O)NC(c5ccccc5)c5ccccc5)N4C(=O)[C@@H](NC(=O)[C@H](C)NC)C3)c2)CC[C@H]2CC[C@@H](C(=O)NC(c3ccccc3)c3ccccc3)N2C1=O — AUC(0-t) (LC-MS/MS; human, advanced solid tumours, plasma; intravenous, 0.6 mg weekly, day 1): 16.1 ± 2.68 ng·h/mL
CN1CCCC1CCNS(=O)(=O)c1ccc2c(c1)CN(CC1CCCCC1)CC2 (stereo not shown) — Tlast (mouse, plasma; oral, 10 mg/kg): 24 h
Cc1nc2cccc(OCC(C)(C)C(=O)NC(C)C)c2c(N)c1C(=O)O — micronucleated polychromatic erythrocytes (male Swiss albino CD-1 mouse, bone marrow; oral, 2000 mg/kg, 24 h): 0.04%
COc1ccc2c(=O)n(C)c(-c3ccccc3)nc2c1 — tissue concentration (male Sprague-Dawley rat, stomach; oral, 30 mg/kg, 4 h): 124 ng/g
COc1ncc(-c2nc3c(n2C(C)C)[C@H](c2ccc(Cl)cc2)N(c2cc(Cl)cn(C)c2=O)C3=O)c(OC)n1 — median Tmax (human patients, plasma; oral, 30 mg, cycle 1 day 1, low-dose): 4.2 h
CCN1CCN(Cc2ccc(Nc3ncc(F)c(-c4cc(F)c5nc6n(c5c4)[C@H](C)CCC6)n3)nc2)CC1 — Tmax (human, plasma; 200 mg single dose, median): 5.95 h
Cn1cc(Nc2nccc(-c3ccc4c(c3)CN(C3COC3)CC[C@H]4NC(=O)c3cn(C(C)(C)C)nn3)n2)cn1 — naive B cell count change (human, whole blood; 150 mg twice daily, day 14; relative to: pre-dose baseline): 30.7%
